Results of several laboratories.
Protocols differ between the studies behind these lines. Values joined by “and” are separate records of one study, mostly repeats; a detail may differ. ± marks the error that the study gave.

SMILES	cell line	test	setting	scale	measurement	result
Cc1ccc(CNC(=O)Cn2cc(CSc3nc4ccccc4[nH]3)nn2)cc1	MDA-MB-231	MTT	125 ppm	–	cytotoxicity	91.7%
CC(C)NCC(O)c1ccc(O)c(O)c1 (stereo not drawn)	mouse ventricular cardiomyocytes	–	dose not given, 0.035 s	–	sarcomere length	1.8 µm
Cn1c(Nc2nc3ccc(C(F)(F)F)cc3s2)nc2cc(C(=O)NCCOCCO)ccc21	SH-SY5Y	RNA-seq, refers to: FOSL1 mRNA	5 µM, 5 h	relative to: untreated cells	fold change	4.45
O=C(O)CNC(=O)c1ncc(-c2cccc(Cl)c2)cc1O	THP-1	pyroptotic LDH release	2 µM, 40 min, with: LPS then nigericin	–	inhibition	38%
Cn1cc(-c2ccc(-c3cncc(Cl)c3N3CCC4(CCNC4=O)CC3)cc2)cn1	COLO 205	microarray, refers to: FABP5	concentration not given, 6 h, gene set E-FABP	relative to: untreated cells	fold change in expression	-1.29
C=Cc1c2[n-]c(c1C)/C=c1\[n-]/c(c(C)c1C=C)=C\c1[n-]c(c(CCC(=O)O)c1C)/C=c1\[n-]c(c(C)c1CCC(=O)O)=C2.[Sn+4]	SH-SY5Y	RNA-seq, refers to: DKK2 mRNA	5 µM, 5 h	relative to: untreated cells	fold change	2.62
CCN1CCN(Cc2ccc(NC(=O)c3ccc(C)c(-c4ccc5nc(NC(=O)C6CC6)cn5c4)c3)cc2C(F)(F)F)CC1	MUTZ5 cells	Western blot, refers to: JAK2, STAT5, STAT3	concentration not given	–	phosphorylation	inhibited
C[C@H](CS)C(=O)N1CCC[C@H]1C(=O)O	HUVEC	western blot	10, 100, 1 µM, with: angiotensin II	relative to: angiotensin II alone	Keap1 protein level	22.7 % decrease
C[C@H]1[C@@H](O)O[C@@H]2O[C@@]3(C)CC[C@H]4[C@H](C)CC[C@@H]1[C@@]24OO3	MOLM-13 cells	lysosomal disruption, flow cytometry	5 µM, 24 h	–	LysoTracker Red positive cells	13.6%
Nc1nccc2c1ncn2[C@@H]1O[C@H](CO)[C@@H](O)[C@H]1O	THP-1	pyroptotic LDH release	2 µM, 40 min, with: LPS then nigericin	–	inhibition	0.57%
COC(=O)C1=C(C)NC(C)=C(C(=O)OCCCCNC[C@H](O)COc2ccccc2)C1c1cccc([N+](=O)[O-])c1 (stereo partly drawn)	HEK293T ATF4-FLuc reporter	ATF4 reporter gene, activator, luciferase reporter	–	–	EC50	6.64 µM
CC(C)(C)NC(=O)c1cncn1C1CCN(c2ccc(-c3nnc(C(F)(F)F)o3)cn2)CC1	HDMEC	qPCR, refers to: GILZ	concentration not given, unit not given	relative to: DMSO	mRNA level	0.496
O=C(Nc1nc2ccc(OCc3ccccc3)cc2[nH]1)c1cn2cc(Cl)ccc2n1	HEK293T ATF4-FLuc reporter	ATF4 reporter gene, activator, luciferase reporter	–	–	EC50	> 9.96 µM
CCn1cc(-c2cc(Cn3ccnc3)cc3c2CCN([C@H](c2cc(OC)ccn2)C2CC2)C3=O)c(C(F)(F)F)n1	HEP3B217	cell growth	120 h	–	EC50	2.01 µM
O=C(O)CCc1ccc(O)c(O)c1	coculture, Caco-2, THP-1	ELISA	200 ng/mL, 8 h, with: LPS, IFNγ, ATP	relative to: untreated control	IL-1β level	8.3 ± 0.8 fold change
COc1ccc(-n2nc(C(C)=O)s/c2=N\N=C(/C)c2ccc(NC(=O)c3ccc(C)cc3)cc2)cc1	HepG2	–	0.078 µM	–	viability	99.8%
COc1cc(O)c2c(=O)c(O)c(-c3ccc(O)c(O)c3)oc2c1	Caco-2/THP-1 co-culture	–	concentration not given, with: LPS 250 ng/mL	–	kynurenine level	101 ± 2.8 % change
Cc1cc(O)c2c(c1)C(=O)c1cc(O)cc(O)c1C2=O	HK-2 co-cultured with HepaRG	MTT	16.67 µM, 24 h	relative to: untreated control	viability	95.9 ± 8.77%
CCn1cc(-c2cc(Cn3ccoc3=N)cc3c2CCN([C@@H](C)c2cc(OC)ccn2)C3=O)c(C(F)(F)F)n1	COLO792	cell growth	120 h	–	EC50	25.7 µM
CCCCCCCCCCCCC(=O)O	THP-1	pyroptotic LDH release	2 µM, 40 min, with: LPS then nigericin	–	inhibition	-24.4%
COc1cc(/C=C/c2ccc(O)cc2)cc(OC)c1	human iPSC cardiomyocytes	plate-normalised	concentration not given, hit retest	relative to: vehicle controls, SDs below control	MyBP-C level change	16.7 SD
CCCN1CCN(c2ccc3[nH]c(-c4ccc5[nH]c(-c6ccc(OCC)c(OCC)c6)nc5c4)nc3c2)CC1	RXF 393	SRB	10 µM, 48 h	–	growth percent	-92.3%
CC(C)C(=O)OCC(=O)[C@@]12O[C@H](C3CCCCC3)O[C@@H]1C[C@H]1[C@@H]3CCC4=CC(=O)C=C[C@]4(C)[C@H]3[C@@H](O)C[C@@]12C	HEK293T ATF4-FLuc reporter	ATF4 reporter gene, activator, luciferase reporter	–	–	EC50	0.0634 µM
CCCCCCCCCCCCCCCCC(=O)O	THP-1	pyroptotic LDH release	2 µM, 40 min, with: LPS then nigericin	–	inhibition	-3.25%
CCCCN1C[C@H](O)[C@@H](O)[C@@H](O)[C@H]1CO	sample D patient fibroblasts	GlcCer level lowering, LC-MS/MS, refers to: GlcCer d18:1/24:1	216 h	–	IC50	61.1 µM
Cn1c(C#N)ccc1-c1ccc2c(c1)C(C)(C)OC(=S)N2	HEK293T ATF4-FLuc reporter	ATF4 reporter gene, activator, luciferase reporter	–	–	EC50	1.12 µM
Cc1cc(Nc2ncc(Cl)c(Nc3ccccc3S(=O)(=O)C(C)C)n2)c(OC(C)C)cc1C1CCNCC1	CLB-BAR	phosphoproteomics LC-MS/MS, refers to: GAB2 phosphorylation	200 nM, 60 min	relative to: untreated	log2 fold change	-4.21

SMILES	cell line	test	setting	scale	measurement	result
Nc1cccc2c1C(=O)N(C1CCC(=O)NC1=O)C2=O (stereo not drawn)	RPMI-8226	flow cytometry, refers to: CD64	concentration not given	relative to: comparator compound alone	surface marker level	41.3%
CC(=O)NC[C@H]1CN(c2ccc(-c3ccc(CNCc4cnn[nH]4)cc3)c(F)c2)C(=O)O1	THP-1	pyroptotic LDH release	2 µM, 40 min, with: LPS then nigericin	–	inhibition	34.4%
C=CCn1c(=O)c2cnc(Nc3ccc(N4CCN(C)CC4)cc3)nc2n1-c1ccc2c(n1)[C@@](O)(CC)CC2	Kuramochi	flow cytometry	concentration not given, G2/M phase	–	γH2AX-positive cells	26.2%
COc1cccc2c1C(=O)c1c(O)c3c(c(O)c1C2=O)C[C@@](O)(C(=O)CO)C[C@@H]3O[C@H]1C[C@H](N)[C@H](O)[C@H](C)O1	HepG2	oxidative stress, refers to: reactive oxygen species	6 h, distribution mode 1	–	point of departure	0.00724 µM
Cc1cnc2ccc3c(c2n1)N1CCC(O)N=C1N3C (stereo not drawn)	BALB/c 3T3	–	5 µM	relative to: solvent control	relative colony forming efficiency	27 ± 3%
O=C(O)Cc1ccc(O)cc1	coculture, Caco-2, THP-1	ELISA	250 ng/mL, 8 h, with: LPS, IFNγ, ATP	relative to: untreated control	IL-1β level	4.8 ± 1 fold change
CCCCN1CCN(c2ccc3nc(-c4ccc5nc(-c6cc(OC)ccc6OC)[nH]c5c4)[nH]c3c2)CC1	RXF 393	SRB	10 µM, 48 h	–	growth percent	82.6%
Nc1nc(-n2cc(C(=O)O)c(=O)c3cc(F)c(N4CC(O)C4)c(Cl)c32)c(F)cc1F	THP-1	pyroptotic LDH release	2 µM, 40 min, with: LPS then nigericin	–	inhibition	-5.22%
O=C(O)c1cc(O)c(O)c(O)c1	Caco-2/THP-1 co-culture	–	0.1 µg/mL, with: LPS 100 ng/mL	–	kynurenine level	156 ± 19 % change
Cc1nn(-c2nc3c(F)cc(F)cc3s2)c(O)c1C(c1ccc(C(F)(F)F)cc1)c1c(C)nn(-c2nc3c(F)cc(F)cc3s2)c1O	THP1-Dual	western blot	20 µM, with: poly(I:C)	relative to: DMSO	phospho-TBK1 to TBK1 ratio	0.791 and 1.16 and 1.02
O=C(/C=C/C=C/C=C/C1CCCCC1)NC1=C[C@@](O)(/C=C/C=C/C=C/C(=O)NC2=C(O)CCC2=O)[C@@H]2O[C@@H]2C1=O	NCI-H2286	cell growth, CellTiter-Glo	78 h	–	GI50	9.84 µM
Cc1cccc(-c2[nH]c(CNc3ccccc3F)nc2-c2ccc3ncnn3c2)n1	bone marrow CD138+ myeloma cells	XTT	1.4 µM, mean of three patients	–	viability	12%
O=C(O)CCc1cccc(O)c1	coculture, Caco-2, THP-1	ELISA	250 ng/mL, 8 h, with: LPS, IFNγ, ATP	relative to: untreated control	IL-1β level	10.7 ± 1.9 fold change
NC(=O)N1c2ccccc2C=Cc2ccccc21	human iPSC-derived cardiac fibroblasts, reporter lines	profibrotic reporter inhibition	72 h, 7 doses up to 20 µM, with: 5 ng/mL TGF-β1	–	EC50	10.2 µM
O=C(Nc1nnc2[nH]c(=S)[nH]c(-c3ccc(Cl)cc3)c1-2)c1ccccc1	RXF 393	SRB	10 µM, NCI60 single-dose screen	relative to: untreated	cell growth	90.9%
CCCC(=O)[O-].[Na+]	Caco-2/THP-1 co-culture	–	concentration not given, with: LPS 500 ng/mL	–	kynurenine level	158 ± 10 % change
COc1cc(/C=C/C(=O)N2CCC=CC2=O)cc(OC)c1OC	MDA-MB-468	qRT-PCR, refers to: NDUFB4	30 µM, 6 h	relative to: time zero	mRNA level	89 ± 12.1%
O=C(O)CCc1ccc(S(=O)(=O)CCc2c(CCNS(=O)(=O)Cc3ccccc3C(F)(F)F)n(C(c3ccccc3)c3ccccc3)c3ccc(Cl)cc23)cc1	HEK293T ATF4-FLuc reporter	ATF4 reporter gene, activator, luciferase reporter	–	–	EC50	> 9.96 µM
COc1cc(C(C)=O)cc(OC)c1O	THP-1	pyroptotic LDH release	2 µM, 40 min, with: LPS then nigericin	–	inhibition	-1.1%
C/C=C(/C)C(=O)O[C@H]1C(C)=C[C@]23C(=O)[C@@H](C=C(CO)[C@@H](O)[C@]12O)[C@H]1[C@@H](C[C@H]3C)C1(C)C	HEK293T ATF4-FLuc reporter	ATF4 reporter gene, activator, luciferase reporter	–	–	EC50	0.0189 µM
CCc1c(-c2ccccc2)c(-c2ccccc2)nn1-c1ccccc1-c1cccc(OCC(=O)O)c1	mouse osteoclasts	RT-qPCR, refers to: Trap	1 µM, unit not given, with: M-CSF plus RANKL	relative to: bone marrow macrophages	mRNA level	3.04 and 2 and 3.01
Nc1nc(Nc2ccc3c(c2)CC[C@@H](N2CCCC2)CC3)nn1-c1cc2c(nn1)-c1ccccc1CCC2	HEK293T ATF4-FLuc reporter	ATF4 reporter gene, activator, luciferase reporter	–	–	EC50	2.53 µM
C[C@H](NC(=O)C(=O)Nc1ccccc1C(C)(C)C)C(=O)N[C@@H](CC(=O)O)C(=O)COc1c(F)c(F)cc(F)c1F	THP-1 wild type, LPS-primed	inhibitor	25 µM, 2 h, with: nigericin 6.25 µM	–	LDH release	25.4% and 17.5% and 19.4%
O=C(C[C@@H](C(F)F)n1ccc(F)n1)N1CCC(O)(Cn2cnc3c(cnn3-c3ccc(F)cc3)c2=O)CC1	CHP-212 parental	annexin V/PI flow cytometry	1 µM, 48 h	–	early apoptotic cells	31% and 27.7% and 36.1%
CN(C)CCCNC(=O)/C(=C/CCCCC(=O)NO)COc1cccc2ccccc12	HEK293T ATF4-FLuc reporter	ATF4 reporter gene, activator, luciferase reporter	–	–	EC50	0.584 µM
CNCc1ccc(C)c(NC(=O)c2ccc(Nc3nc(-c4ccccc4)c4ccccc4n3)cc2)c1	THP-1	pyroptotic LDH release	2 µM, 40 min, with: LPS then nigericin	–	inhibition	33.7%
COc1cnc2cccc(N3CCc4c(cc(Cn5ccnc5C)cc4-c4cn(C)nc4C(F)(F)F)C3=O)c2c1	SNU119	cell growth	120 h	–	EC50	5.96 µM

Excerpt of the above:
SMILES	cell line	test	setting	scale	measurement	result
COc1cc(/C=C/c2ccc(O)cc2)cc(OC)c1	human iPSC cardiomyocytes	plate-normalised	concentration not given, hit retest	relative to: vehicle controls, SDs below control	MyBP-C level change	16.7 SD
CCCN1CCN(c2ccc3[nH]c(-c4ccc5[nH]c(-c6ccc(OCC)c(OCC)c6)nc5c4)nc3c2)CC1	RXF 393	SRB	10 µM, 48 h	–	growth percent	-92.3%
CC(C)C(=O)OCC(=O)[C@@]12O[C@H](C3CCCCC3)O[C@@H]1C[C@H]1[C@@H]3CCC4=CC(=O)C=C[C@]4(C)[C@H]3[C@@H](O)C[C@@]12C	HEK293T ATF4-FLuc reporter	ATF4 reporter gene, activator, luciferase reporter	–	–	EC50	0.0634 µM
CCCCCCCCCCCCCCCCC(=O)O	THP-1	pyroptotic LDH release	2 µM, 40 min, with: LPS then nigericin	–	inhibition	-3.25%
CCCCN1C[C@H](O)[C@@H](O)[C@@H](O)[C@H]1CO	sample D patient fibroblasts	GlcCer level lowering, LC-MS/MS, refers to: GlcCer d18:1/24:1	216 h	–	IC50	61.1 µM
Cn1c(C#N)ccc1-c1ccc2c(c1)C(C)(C)OC(=S)N2	HEK293T ATF4-FLuc reporter	ATF4 reporter gene, activator, luciferase reporter	–	–	EC50	1.12 µM
Cc1cc(Nc2ncc(Cl)c(Nc3ccccc3S(=O)(=O)C(C)C)n2)c(OC(C)C)cc1C1CCNCC1	CLB-BAR	phosphoproteomics LC-MS/MS, refers to: GAB2 phosphorylation	200 nM, 60 min	relative to: untreated	log2 fold change	-4.21
Nc1cccc2c1C(=O)N(C1CCC(=O)NC1=O)C2=O (stereo not drawn)	RPMI-8226	flow cytometry, refers to: CD64	concentration not given	relative to: comparator compound alone	surface marker level	41.3%
CC(=O)NC[C@H]1CN(c2ccc(-c3ccc(CNCc4cnn[nH]4)cc3)c(F)c2)C(=O)O1	THP-1	pyroptotic LDH release	2 µM, 40 min, with: LPS then nigericin	–	inhibition	34.4%
